# Results of several laboratories.
# Parts stem from different laboratories: compare values within a part only.
# Chain of UniProt Q9UQ88 (whole entry, looked up): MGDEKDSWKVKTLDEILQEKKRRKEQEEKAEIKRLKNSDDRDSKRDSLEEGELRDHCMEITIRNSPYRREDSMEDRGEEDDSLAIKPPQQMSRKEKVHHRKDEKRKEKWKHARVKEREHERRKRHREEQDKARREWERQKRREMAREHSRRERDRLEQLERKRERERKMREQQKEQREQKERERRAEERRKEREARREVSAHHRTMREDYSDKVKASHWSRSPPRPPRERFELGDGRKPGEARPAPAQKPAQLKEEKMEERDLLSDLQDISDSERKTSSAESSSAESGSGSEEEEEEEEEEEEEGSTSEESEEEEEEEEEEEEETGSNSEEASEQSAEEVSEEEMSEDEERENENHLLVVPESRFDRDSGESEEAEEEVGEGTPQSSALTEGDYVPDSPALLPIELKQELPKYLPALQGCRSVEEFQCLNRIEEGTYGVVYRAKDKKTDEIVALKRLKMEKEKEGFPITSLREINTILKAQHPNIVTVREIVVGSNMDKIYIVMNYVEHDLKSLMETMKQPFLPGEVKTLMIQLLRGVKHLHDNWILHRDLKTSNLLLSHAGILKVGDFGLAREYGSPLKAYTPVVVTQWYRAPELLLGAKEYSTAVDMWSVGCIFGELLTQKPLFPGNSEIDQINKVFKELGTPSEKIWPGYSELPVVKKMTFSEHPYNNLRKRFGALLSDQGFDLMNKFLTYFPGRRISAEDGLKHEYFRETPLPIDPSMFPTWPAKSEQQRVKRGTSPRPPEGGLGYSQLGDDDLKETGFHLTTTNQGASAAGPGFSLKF
# Chain of UniProt P57078 (whole entry, looked up): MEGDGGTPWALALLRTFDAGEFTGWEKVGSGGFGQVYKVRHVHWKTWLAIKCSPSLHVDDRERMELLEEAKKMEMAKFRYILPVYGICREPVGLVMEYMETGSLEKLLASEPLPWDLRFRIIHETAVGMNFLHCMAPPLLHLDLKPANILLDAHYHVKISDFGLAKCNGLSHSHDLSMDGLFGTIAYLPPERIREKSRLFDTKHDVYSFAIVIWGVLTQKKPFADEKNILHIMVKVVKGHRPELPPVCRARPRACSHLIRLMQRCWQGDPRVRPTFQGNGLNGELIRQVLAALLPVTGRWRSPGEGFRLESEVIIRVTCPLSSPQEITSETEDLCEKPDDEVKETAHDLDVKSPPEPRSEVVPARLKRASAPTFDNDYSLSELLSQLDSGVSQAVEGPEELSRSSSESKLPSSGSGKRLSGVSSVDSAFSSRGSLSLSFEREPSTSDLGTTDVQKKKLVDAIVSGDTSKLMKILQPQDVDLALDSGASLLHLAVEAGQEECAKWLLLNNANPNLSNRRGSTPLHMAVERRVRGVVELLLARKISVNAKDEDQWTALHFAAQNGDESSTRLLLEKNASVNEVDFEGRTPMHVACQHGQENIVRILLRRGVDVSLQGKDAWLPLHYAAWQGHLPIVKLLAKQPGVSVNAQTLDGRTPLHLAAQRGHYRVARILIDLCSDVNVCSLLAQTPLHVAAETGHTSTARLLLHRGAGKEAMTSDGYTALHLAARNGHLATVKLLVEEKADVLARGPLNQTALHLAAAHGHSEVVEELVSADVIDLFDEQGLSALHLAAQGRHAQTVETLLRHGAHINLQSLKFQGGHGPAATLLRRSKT
# Chain of UniProt Q96Q40 (whole entry, looked up): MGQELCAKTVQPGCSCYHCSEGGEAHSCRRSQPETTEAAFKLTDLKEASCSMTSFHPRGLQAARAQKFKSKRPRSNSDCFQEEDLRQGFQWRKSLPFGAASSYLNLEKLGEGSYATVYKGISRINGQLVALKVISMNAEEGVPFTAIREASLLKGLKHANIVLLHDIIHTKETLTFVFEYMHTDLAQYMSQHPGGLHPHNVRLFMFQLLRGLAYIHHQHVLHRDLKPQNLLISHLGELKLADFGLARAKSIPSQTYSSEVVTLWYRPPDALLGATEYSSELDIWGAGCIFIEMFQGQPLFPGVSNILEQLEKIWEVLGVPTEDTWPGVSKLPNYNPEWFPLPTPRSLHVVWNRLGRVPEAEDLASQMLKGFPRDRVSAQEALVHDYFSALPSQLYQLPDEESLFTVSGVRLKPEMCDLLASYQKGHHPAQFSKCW
# Chain of UniProt P00519 (whole entry, looked up): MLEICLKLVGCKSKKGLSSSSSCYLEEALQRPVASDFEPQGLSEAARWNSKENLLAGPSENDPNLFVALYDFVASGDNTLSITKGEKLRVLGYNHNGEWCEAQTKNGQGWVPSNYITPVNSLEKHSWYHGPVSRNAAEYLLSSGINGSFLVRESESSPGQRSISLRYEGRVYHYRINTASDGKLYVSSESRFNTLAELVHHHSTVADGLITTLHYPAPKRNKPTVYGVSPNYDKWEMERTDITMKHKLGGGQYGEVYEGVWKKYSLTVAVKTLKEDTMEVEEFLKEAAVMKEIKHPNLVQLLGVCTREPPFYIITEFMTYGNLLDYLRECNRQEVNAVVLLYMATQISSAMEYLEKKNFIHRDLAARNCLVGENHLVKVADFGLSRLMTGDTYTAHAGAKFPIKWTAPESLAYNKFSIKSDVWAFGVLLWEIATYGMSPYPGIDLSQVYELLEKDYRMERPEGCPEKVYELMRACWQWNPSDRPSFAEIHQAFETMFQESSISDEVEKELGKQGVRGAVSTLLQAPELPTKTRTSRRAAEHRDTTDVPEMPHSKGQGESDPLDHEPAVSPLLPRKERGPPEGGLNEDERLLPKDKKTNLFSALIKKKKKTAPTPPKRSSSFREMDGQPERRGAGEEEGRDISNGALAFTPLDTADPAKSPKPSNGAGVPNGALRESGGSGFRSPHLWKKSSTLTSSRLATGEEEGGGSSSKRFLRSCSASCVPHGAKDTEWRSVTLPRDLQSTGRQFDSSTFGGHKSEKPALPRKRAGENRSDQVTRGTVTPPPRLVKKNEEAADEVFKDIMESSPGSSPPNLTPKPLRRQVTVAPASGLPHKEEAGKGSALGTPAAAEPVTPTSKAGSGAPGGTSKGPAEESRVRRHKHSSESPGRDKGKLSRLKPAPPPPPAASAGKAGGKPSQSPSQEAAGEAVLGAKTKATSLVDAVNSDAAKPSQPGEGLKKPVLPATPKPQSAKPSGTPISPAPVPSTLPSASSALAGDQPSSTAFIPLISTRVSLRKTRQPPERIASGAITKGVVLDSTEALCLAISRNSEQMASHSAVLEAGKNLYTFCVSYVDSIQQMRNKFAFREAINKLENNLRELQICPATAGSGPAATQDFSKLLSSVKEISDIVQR
# Chain of UniProt P51451 (whole entry, looked up): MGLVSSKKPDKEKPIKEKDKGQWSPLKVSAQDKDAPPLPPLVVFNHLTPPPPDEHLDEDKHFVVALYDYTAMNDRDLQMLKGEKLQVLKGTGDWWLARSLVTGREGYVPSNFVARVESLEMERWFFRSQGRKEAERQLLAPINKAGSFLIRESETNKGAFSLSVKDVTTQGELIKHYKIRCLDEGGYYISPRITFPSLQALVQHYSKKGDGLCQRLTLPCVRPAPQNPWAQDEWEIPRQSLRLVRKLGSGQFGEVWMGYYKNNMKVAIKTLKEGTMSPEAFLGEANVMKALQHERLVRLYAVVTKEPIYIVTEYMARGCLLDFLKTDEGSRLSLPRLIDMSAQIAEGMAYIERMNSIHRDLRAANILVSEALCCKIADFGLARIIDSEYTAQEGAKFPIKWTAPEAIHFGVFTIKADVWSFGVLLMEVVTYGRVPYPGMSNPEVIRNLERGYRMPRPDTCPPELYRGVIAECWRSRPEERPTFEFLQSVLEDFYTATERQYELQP

# Set 1
# Target: TAR DNA-binding protein 43, full length, His tag (TARDBP, Homo sapiens, UniProt Q13148, residues 1-414)
# Technique: RNA Bind-n-Seq
# Form: RNA
# Medium: in vitro
# Tested at: 20 nM
# Notes: 6-mer, flanks averaged, single round
# Together with: 150 mM LiCl
# Relative to: input library
# Direction: higher = stronger binding
Oligonucleotide,6-mer enrichment (R)
GGUCAC,0.876
UCUUUA,1.02
AAGUAC,0.831
AGCCCG,0.927
CGAUUG,0.897
UCACUC,0.848
AGCUGU,0.971
GAAAAA,0.849

# Set 2
# SMILES: CS(=O)(=O)NCC[C@H](NC(=O)c1cncc2c1cnn2-c1ccc(F)cc1)c1ccnc(S(C)(=O)=O)c1
# Technique: competition with immobilised ligand
# Tested at: 1 µM
target,effect on,remaining binding
"WNK4 (Homo sapiens, UniProt Q96J92)",cell-free assay,100%
"EPHA1 (Homo sapiens, UniProt P21709)",cell-free assay,100%
"CDKL2 (Homo sapiens, UniProt Q92772)",binding,100%
"CAMKK2 (Homo sapiens, UniProt Q96RR4)",cell-free assay,100%
"CDK15 (Homo sapiens, UniProt Q96Q40)",cell-free assay,79%
"CDK11A (Homo sapiens, UniProt Q9UQ88)",binding,100%
"Tyrosine-protein kinase ABL1, phosphorylated (ABL1, Homo sapiens, UniProt P00519)",cell-free assay,100%
"Ribosomal protein S6 kinase alpha-3, C-terminal kinase domain (RPS6KA3, Homo sapiens, UniProt P51812)",cell-free assay,98%
"MAPKAPK2 (Homo sapiens, UniProt P49137)",cell-free assay,100%
"CDK14 (Homo sapiens, UniProt O94921)",cell-free assay,100%
"EGFR (Homo sapiens, UniProt P00533, A750P/del747-749)",cell-free assay,71%
"BLK (Homo sapiens, UniProt P51451)",cell-free assay,100%
"RIPK4 (Homo sapiens, UniProt P57078)",cell-free assay,88%
"CAMK2D (Homo sapiens, UniProt Q13557)",cell-free assay,100%
"EGFR (Homo sapiens, UniProt P00533, del747-752/P753S)",cell-free assay,71%

# Set 3
# Target: Sal-like protein 4, full length isoform B (SALL4, Homo sapiens, UniProt Q9UJQ4-2, residues 1-616)
# Technique: universal PBM
# Form: double-stranded DNA, one strand shown
# Medium: in vitro
# Tested at: not given
# Notes: 8-mer, flanks averaged, mean of replicates
# Direction: higher = stronger binding
Oligonucleotide,E-score
CACGATCA,0.0917
AGGCAAGA,0.0895
ACGGCGCT,-0.306
AGAAGCCA,-0.0498
CGCATGCA,-0.0279
AAATAAAA,0.318
GCGAGGTA,-0.0188
CCGGGGAC,-0.282

# Set 4
# Target: Homeodomain-interacting protein kinase 1 (HIPK1, Homo sapiens, UniProt Q86Z02)
# Chain of UniProt Q86Z02 (whole entry, looked up): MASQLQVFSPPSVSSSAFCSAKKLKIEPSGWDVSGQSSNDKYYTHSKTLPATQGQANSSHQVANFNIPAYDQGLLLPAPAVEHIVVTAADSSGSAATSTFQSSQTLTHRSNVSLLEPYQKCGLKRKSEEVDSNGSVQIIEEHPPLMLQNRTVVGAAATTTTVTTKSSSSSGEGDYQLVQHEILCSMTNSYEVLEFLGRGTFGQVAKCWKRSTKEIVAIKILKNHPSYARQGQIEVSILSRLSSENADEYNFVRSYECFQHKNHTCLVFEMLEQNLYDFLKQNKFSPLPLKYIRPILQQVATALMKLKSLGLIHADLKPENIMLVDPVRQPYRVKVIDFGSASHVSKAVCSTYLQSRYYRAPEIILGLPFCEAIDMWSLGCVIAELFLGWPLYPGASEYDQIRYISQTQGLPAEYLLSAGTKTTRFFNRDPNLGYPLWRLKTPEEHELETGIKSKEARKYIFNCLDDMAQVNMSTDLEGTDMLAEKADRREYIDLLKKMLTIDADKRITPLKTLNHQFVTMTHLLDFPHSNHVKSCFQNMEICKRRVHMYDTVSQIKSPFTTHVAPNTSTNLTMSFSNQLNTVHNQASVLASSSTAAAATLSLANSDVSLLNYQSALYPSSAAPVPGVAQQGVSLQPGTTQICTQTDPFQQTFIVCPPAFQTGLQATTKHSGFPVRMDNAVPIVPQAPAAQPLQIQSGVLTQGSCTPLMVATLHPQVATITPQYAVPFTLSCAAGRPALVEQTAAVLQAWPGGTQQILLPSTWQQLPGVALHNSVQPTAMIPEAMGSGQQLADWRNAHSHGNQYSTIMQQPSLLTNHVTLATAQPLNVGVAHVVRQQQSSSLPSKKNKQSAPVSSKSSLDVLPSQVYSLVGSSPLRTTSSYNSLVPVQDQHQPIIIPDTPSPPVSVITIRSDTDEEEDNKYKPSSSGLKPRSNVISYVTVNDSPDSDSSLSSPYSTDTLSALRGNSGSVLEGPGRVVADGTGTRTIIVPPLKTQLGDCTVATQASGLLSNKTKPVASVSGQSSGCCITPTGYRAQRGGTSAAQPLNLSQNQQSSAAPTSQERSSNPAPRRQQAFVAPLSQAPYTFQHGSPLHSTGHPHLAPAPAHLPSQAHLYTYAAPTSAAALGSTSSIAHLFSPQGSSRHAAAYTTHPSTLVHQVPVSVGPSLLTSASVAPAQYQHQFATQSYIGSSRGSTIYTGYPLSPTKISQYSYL
# Effect on: enzyme activity
# Mode: inhibitor
# Tested at: 0.5 µM
# Relative to: control
Structure (SMILES),remaining activity [%]
Cn1sc(=O)n(Cc2ccccc2)c1=O,92.3
O=C(Nc1cccc(Nc2cc(Nc3cccc(C(F)(F)F)c3)ncn2)c1)C1CC1,99.7
CC(C)[C@H](CO)Nc1nc(Nc2cc(N)cc(Cl)c2)c2ncn(C(C)C)c2n1,99.2
Nc1ncnc2n[nH]c(Nc3ccc(F)cc3)c12,106
COc1cc2nccc(Oc3ccc(NC(=S)NC(=O)c4ccccc4C)cc3)c2cc1OC,100
Cc1cccc(-c2[nH]c(C(C)(C)C)nc2-c2ccc3c(c2)OCO3)n1,101
COc1cc2ncnc(Nc3ccc(Oc4ccccc4)cc3)c2cc1OC,102
COc1ccc(C(=O)Nc2sc3c(c2C(N)=O)CCCC3)cc1OC,90.2
Cc1ccc(Nc2nccc(N(C)c3ccc4c(C)n(C)nc4c3)n2)cc1S(N)(=O)=O,97.6
CN(C)c1ccc(C=C2C(=O)Nc3ccccc32)cc1,103
O=c1c2ccccc2[nH]c(=S)n1CCN1CCC(=C(c2ccc(F)cc2)c2ccc(F)cc2)CC1,107
Nc1ccc2ncnc(NCCc3ccc(Oc4ccccc4)cc3)c2c1,104
CCOC(=O)c1c(C)[nH]c(/C=C2\C(=O)Nc3ccccc32)c1C,97.3
Oc1ccc(-c2nc(-c3ccncc3)c(-c3ccc(F)cc3)[nH]2)cc1,98.2

# Some of these lines once more (set 4):
Structure (SMILES),remaining activity [%]
CN(C)c1ccc(C=C2C(=O)Nc3ccccc32)cc1,103
O=C(Nc1cccc(Nc2cc(Nc3cccc(C(F)(F)F)c3)ncn2)c1)C1CC1,99.7
Oc1ccc(-c2nc(-c3ccncc3)c(-c3ccc(F)cc3)[nH]2)cc1,98.2
Nc1ccc2ncnc(NCCc3ccc(Oc4ccccc4)cc3)c2c1,104
COc1ccc(C(=O)Nc2sc3c(c2C(N)=O)CCCC3)cc1OC,90.2
O=c1c2ccccc2[nH]c(=S)n1CCN1CCC(=C(c2ccc(F)cc2)c2ccc(F)cc2)CC1,107
COc1cc2ncnc(Nc3ccc(Oc4ccccc4)cc3)c2cc1OC,102
